Published values pooled from the literature.
Parts stem from different laboratories: compare values within a part only. Substitutions count along the parent as printed.

Sample 1 — method: RNAcompete; molecule type: RNA; sample: in vitro; tested at: 20 nM; setting: 7-mer, probes averaged, single round; baseline: mean of 7-mers; direction: higher = stronger binding
Target: PABPC1L2, full length, GST fusion (mouse, UniProt A0ABA7IW68)
Construct (chain): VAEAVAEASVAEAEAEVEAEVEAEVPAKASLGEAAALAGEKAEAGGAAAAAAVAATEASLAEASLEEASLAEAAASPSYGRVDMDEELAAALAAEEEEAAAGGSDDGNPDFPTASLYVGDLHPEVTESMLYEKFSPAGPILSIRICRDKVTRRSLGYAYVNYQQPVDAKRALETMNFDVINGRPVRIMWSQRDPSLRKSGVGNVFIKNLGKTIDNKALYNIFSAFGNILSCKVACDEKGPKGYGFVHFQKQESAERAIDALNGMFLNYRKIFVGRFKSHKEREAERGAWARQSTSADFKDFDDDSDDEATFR
| Sequence | 7-mer Z-score |
| --- | --- |
| CGUUCGU | -0.441 |
| CCCUAGU | -0.387 |
| UUUCAGG | -0.282 |
| UUGAAUC | -0.15 |
| AUAUAGG | -0.05 |
| CCUCGAC | -0.365 |
| CGUGUAG | -0.17 |
| AGCUCGC | -0.304 |

Sample 2 — method: DHFR PCA, dose-response; sample: yeast; setting: Hill fit, mean, not affinity; with: (+)-ABA, dose series; direction: lower = more sensitive
Target: ABI1, truncated, D143A, DHFR fusion (Arabidopsis thaliana, UniProt P49597)
Parent: PYL1, truncated, DHFR fusion (Arabidopsis thaliana, UniProt Q8VZS8); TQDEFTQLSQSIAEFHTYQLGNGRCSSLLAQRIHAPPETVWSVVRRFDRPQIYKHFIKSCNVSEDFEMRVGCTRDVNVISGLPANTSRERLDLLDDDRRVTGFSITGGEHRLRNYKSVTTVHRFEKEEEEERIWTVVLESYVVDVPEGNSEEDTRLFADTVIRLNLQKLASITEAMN
| Substitution | ABA EC50 [µM] |
| --- | --- |
| A13G | 4.36 |
| R46H | 42.4 |
| Y18K | 7.06 |
| S171V | 2.21 |
| L164H | 0.827 |
| F124Q | 7.62 |
| E139F | 330 |
| S150L | 57.7 |

Sample 3 — method: two-hybrid; baseline: out of 4 tests; direction: higher = firmer interaction
Partner: ARF16 570-670 (Arabidopsis thaliana, UniProt Q93YR9)
B1: ARF1 538-665 (Arabidopsis thaliana, UniProt Q8L7G0); chain SRQIRSCTKVHMQGSAVGRAIDLTRSECYEDLFKKLEEMFDIKGELLESTKKWQVVYTDDEDDMMMVGDDPWNEFCGMVRKIFIYTPEEVKKLSPKNKLAVNARMQLKADAEENGNTEGRSSSMAGSR
B2: IAA28 (Arabidopsis thaliana, UniProt Q9XFM0); chain MEEEKRLELRLAPPCHQFTSNNNINGSKQKSSTKETSFLSNNRVEVAPVVGWPPVRSSRRNLTAQLKEEMKKKESDEEKELYVKINMEGVPIGRKVNLSAYNNYQQLSHAVDQLFSKKDSWDLNRQYTLVYEDTEGDKVLVGDVPWEMFVSTVKRLHVLKTSHAFSLSPRKHGKE
B3: IAA14 (Arabidopsis thaliana, UniProt Q38832); chain MNLKETELCLGLPGGTETVESPAKSGVGNKRGFSETVDLKLNLQSNKQGHVDLNTNGAPKEKTFLKDPSKPPAKAQVVGWPPVRNYRKNVMANQKSGEAEEAMSSGGGTVAFVKVSMDGAPYLRKVDLKMYTSYKDLSDALAKMFSSFTMGSYGAQGMIDFMNESKVMDLLNSSEYVPSYEDKDGDWMLVGDVPWPMFVESCKRLRIMKGSEAIGLAPRAMEKFKNRS
B4: IAA15 (Arabidopsis thaliana, UniProt Q9C966); chain MSPEEYVRVWPDSGDLGGTELTLALPGTPTNASEGPKKFGNKRRFLETVDLKLGEAHENNYISSMVTNDQLVGWPPVATARKTVRRKYVKVALDGAAYLRKVDLGMYDCYGQLFTALENMFQGIITICRVTELERKGEFVATYEDKDGDLMLVGDVPWMMFVESCKRMRLMKTGDAIGL
B5: IAA19 (Arabidopsis thaliana, UniProt O24409); chain MEKEGLGLEITELRLGLPGRDVAEKMMKKRAFTEMNMTSSGSNSDQCESGVVSSGGDAEKVNDSPAAKSQVVGWPPVCSYRKKNSCKEASTTKVGLGYVKVSMDGVPYLRKMDLGSSQGYDDLAFALDKLFGFRGIGVALKDGDNCEYVTIYEDKDGDWMLAGDVPWGMFLESCKRLRIMKRSDATGFGLQPRGVDE
B6: IAA34 (Arabidopsis thaliana, UniProt Q9C5X0); chain MYCSDPPHPLHLVASDKQQKDHKLILSWKKPTMDSDPLGVFPNSPKYHPYYSQTTEFGGVIDLGLSLRTIQHEIYHSSGQRYCSNEGYRRKWGYVKVTMDGLVVGRKVCVLDHGSYSTLAHQLEDMFGMQSVSGLRLFQMESEFCLVYRDEEGLWRNAGDVPWNEFIESVERLRITRRNDAVLPF
B7: ARF7 1030-1164 (Arabidopsis thaliana, UniProt P93022); chain PAQTQRMRTYTKVQKRGSVGRSIDVNRYRGYDELRHDLARMFGIEGQLEDPQTSDWKLVYVDHENDILLVGDDPWEEFVNCVQSIKILSSAEVQQMSLDGNFAGVPVTNQACSGGDSGNAWRGHYDDNSATSFNR
B8: ARF2 727-859 (Arabidopsis thaliana, UniProt Q94JM3); chain TKTNSSRSCTKVHKQGIALGRSVDLSKFQNYEELVAELDRLFEFNGELMAPKKDWLIVYTDEENDMMLVGDDPWQEFCCMVRKIFIYTKEEVRKMNPGTLSCRSEEEAVVGEGSDAKDAKSASNPSLSSAGNS
Residues (chain): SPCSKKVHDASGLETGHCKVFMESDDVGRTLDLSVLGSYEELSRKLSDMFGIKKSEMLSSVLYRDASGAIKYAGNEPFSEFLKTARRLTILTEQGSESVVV
| Molecule | positive tests |
| --- | --- |
| B1 (ARF1 538-665) | 0 |
| B2 (IAA28) | 0 |
| B3 (IAA14) | 0 |
| B4 (IAA15) | 1 |
| B5 (IAA19) | 0 |
| B6 (IAA34) | 1 |
| B7 (ARF7 1030-1164) | 0 |
| B8 (ARF2 727-859) | 0 |

Single results of other studies — parent: viral docking peptide; KGVKRKLFAEDSS
| Substitution | target | test | test system | setting | how to read | endpoint | value |
| --- | --- | --- | --- | --- | --- | --- | --- |
| D11I | CCNB1, cyclin fold, Cln2 fusion (human) | yeast growth competition, sequencing | yeast | strong parent motif | baseline: not given, higher = stronger binding | normalised enrichment score | 1.27 |

Some of these lines once more (sample 1):
| Sequence | 7-mer Z-score |
| --- | --- |
| AUAUAGG | -0.05 |
| CCUCGAC | -0.365 |
| CGUGUAG | -0.17 |
| AGCUCGC | -0.304 |
